Published values pooled from the literature.
Lines come from different studies, so protocols differ. Several values in a cell are separate wells, animals, samples, runs or records. Numbers after ± are the reported error.

Cc1cc(C(=O)NC(C)(C)COc2cccc3c2C(N)=NS(=O)(=O)N3)cc(C)n1  revertant ratio (Salmonella typhimurium; Ames test, initial; TA1535; 1500 µg/plate; baseline: solvent control): 1
CC(C)C[C@H](NC(=O)[C@H](Cc1c[nH]cn1)NC(=O)[C@H](Cc1c[nH]cn1)NC(=O)[C@H](Cc1ccc(O)cc1)NC(=O)[C@@H](N)CS)C(=O)N[C@H](C(=O)N[C@@H](CC(C)C)C(=O)N[C@H](C(=O)N[C@H](C(=O)NCC(=O)NCC(=O)N[C@@H](CO)C(=O)O)C(C)C)[C@@H](C)O)C(C)C  body weight (Epstein-Barr virus; B-NDG humanized mouse, EBV-infected; 20 mg/kg, day 28): 21.2 g and 21.5 g and 23.4 g
O=[N+]([O-])c1ccc(N2CCC(NCCC(O)c3ccc(F)c4ccccc34)CC2)c(C(F)(F)F)c1 (stereo not drawn)  induction factor (Salmonella typhimurium; genotoxicity, SOS/umu test; TA1535/pSK1002; 0.008 mg/mL, 4 h, without S9, lower range): 1.1
Cc1c(Cl)c(=O)oc2cc(OCCCC[Se]C#N)ccc12  embryonic lethality (Caenorhabditis elegans; N2 Bristol, NGM with E. coli OP50; 10 µM, 24 h): 1.94%
O=NN1CCN(C2CCCC2)CC1  revertant colonies per plate (Escherichia coli; mutagenicity, Ames plate incorporation; WP2 uvrA pKM101; 2500 µg/plate, 3 d, without S9, methanol): 90 ± 16
[Cl-].[Cl-].[Pt+2].[Ru+2].c1ccc(-c2nccnc2-c2ccccn2)nc1.c1cnc2c(c1)ccc1cccnc12.c1cnc2c(c1)ccc1cccnc12  survival rate (Danio rerio; embryos; 30 µM, 12 h): 90 ± 3%
COCCN(CCOC)N=O  revertant colonies per plate (Escherichia coli; mutagenicity, Ames plate incorporation; WP2 uvrA pKM101; 1500 µg/plate, 3 d, without S9, methanol): 140 ± 3
OC(CCN1CC=C(c2ccc(F)cc2)CC1)c1ccc(F)c2ccccc12 (stereo not drawn)  survival (Salmonella typhimurium; SOS/umu test; TA1535/pSK1002, TGA medium; 0.000488 mg/mL, 4 h, together with: 10% rat liver S9): 114%
CN(N=O)c1ccc(F)cc1  revertant colonies per plate (Escherichia coli; mutagenicity, Ames plate incorporation; WP2 uvrA pKM101; 5000 µg/plate, 3 d, without S9, methanol): 37.3
COc1cccc(-c2n[nH]c(SCc3ccccn3)n2)c1OC  revertant colonies per plate (Salmonella typhimurium; Ames test, preincubation; TA1537; 0.25 mg/plate, with rat liver S9): 8
CN(CC(C)(C)C)N=O  revertant colonies per plate (Escherichia coli; mutagenicity, Ames plate incorporation; WP2 uvrA pKM101; 2500 µg/plate, without S9, methanol): 195 ± 18
CC(=O)N1CCC(C(=O)N2CCN3C(=O)c4cc(-c5ccccc5)ccc4NC(=O)C3C2)CC1 (stereo not drawn)  revertants per plate (Salmonella typhimurium; TA98; 5.0 µg/plate): 32.5

Excerpt of the above:
CC(C)C[C@H](NC(=O)[C@H](Cc1c[nH]cn1)NC(=O)[C@H](Cc1c[nH]cn1)NC(=O)[C@H](Cc1ccc(O)cc1)NC(=O)[C@@H](N)CS)C(=O)N[C@H](C(=O)N[C@@H](CC(C)C)C(=O)N[C@H](C(=O)N[C@H](C(=O)NCC(=O)NCC(=O)N[C@@H](CO)C(=O)O)C(C)C)[C@@H](C)O)C(C)C  body weight (Epstein-Barr virus; B-NDG humanized mouse, EBV-infected; 20 mg/kg, day 28): 21.2 g and 21.5 g and 23.4 g
